# Experimental data collected from several papers.
# A part holds a random share of what one study measured.
# Sequence of UniProt O15111 (whole entry, looked up): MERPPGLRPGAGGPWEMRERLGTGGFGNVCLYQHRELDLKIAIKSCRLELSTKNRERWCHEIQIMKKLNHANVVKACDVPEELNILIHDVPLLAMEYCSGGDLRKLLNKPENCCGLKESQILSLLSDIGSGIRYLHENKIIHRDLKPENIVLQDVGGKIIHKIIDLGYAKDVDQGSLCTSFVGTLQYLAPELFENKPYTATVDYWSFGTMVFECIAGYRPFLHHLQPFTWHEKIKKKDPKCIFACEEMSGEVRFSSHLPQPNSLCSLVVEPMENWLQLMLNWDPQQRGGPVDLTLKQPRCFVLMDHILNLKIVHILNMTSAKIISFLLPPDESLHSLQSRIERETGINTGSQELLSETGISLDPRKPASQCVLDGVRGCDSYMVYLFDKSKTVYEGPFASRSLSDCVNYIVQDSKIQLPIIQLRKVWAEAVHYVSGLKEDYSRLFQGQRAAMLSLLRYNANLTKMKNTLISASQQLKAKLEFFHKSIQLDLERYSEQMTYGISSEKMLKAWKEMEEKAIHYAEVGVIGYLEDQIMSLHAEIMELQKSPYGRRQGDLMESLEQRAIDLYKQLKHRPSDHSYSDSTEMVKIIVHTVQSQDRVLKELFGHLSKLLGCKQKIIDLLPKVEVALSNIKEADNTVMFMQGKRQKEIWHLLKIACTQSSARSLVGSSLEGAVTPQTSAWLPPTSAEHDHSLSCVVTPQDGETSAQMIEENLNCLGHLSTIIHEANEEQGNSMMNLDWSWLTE
# Sequence of UniProt P50750 (whole entry, looked up): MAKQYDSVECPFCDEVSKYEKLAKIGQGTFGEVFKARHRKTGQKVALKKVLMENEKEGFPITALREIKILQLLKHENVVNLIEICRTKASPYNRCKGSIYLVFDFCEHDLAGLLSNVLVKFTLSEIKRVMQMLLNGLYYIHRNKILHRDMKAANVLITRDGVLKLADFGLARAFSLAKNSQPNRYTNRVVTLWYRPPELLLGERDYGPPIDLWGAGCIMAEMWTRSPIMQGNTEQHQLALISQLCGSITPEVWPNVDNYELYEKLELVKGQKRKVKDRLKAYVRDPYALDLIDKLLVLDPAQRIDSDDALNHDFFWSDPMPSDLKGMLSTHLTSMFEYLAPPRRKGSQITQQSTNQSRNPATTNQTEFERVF
# Sequence of UniProt Q96L34 (whole entry, looked up): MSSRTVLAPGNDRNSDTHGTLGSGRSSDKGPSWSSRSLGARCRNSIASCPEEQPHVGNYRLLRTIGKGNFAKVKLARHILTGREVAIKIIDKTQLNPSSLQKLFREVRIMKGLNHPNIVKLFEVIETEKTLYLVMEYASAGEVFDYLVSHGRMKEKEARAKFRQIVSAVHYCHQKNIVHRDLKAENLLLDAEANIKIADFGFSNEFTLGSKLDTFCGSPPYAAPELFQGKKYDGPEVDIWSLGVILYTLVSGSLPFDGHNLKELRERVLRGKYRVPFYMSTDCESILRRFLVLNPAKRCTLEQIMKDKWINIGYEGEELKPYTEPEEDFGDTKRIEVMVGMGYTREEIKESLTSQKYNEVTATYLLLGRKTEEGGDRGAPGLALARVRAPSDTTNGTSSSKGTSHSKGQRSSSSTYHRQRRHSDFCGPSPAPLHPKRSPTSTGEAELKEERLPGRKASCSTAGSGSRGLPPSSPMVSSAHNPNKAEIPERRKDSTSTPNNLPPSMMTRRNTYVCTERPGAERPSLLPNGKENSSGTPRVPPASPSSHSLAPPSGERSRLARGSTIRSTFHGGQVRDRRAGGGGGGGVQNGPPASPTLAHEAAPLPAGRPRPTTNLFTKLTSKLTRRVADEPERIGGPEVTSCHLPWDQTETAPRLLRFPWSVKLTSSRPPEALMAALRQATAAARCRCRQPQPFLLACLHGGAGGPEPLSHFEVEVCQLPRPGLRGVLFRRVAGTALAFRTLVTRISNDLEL
# Sequence of UniProt Q9H0K1 (whole entry, looked up): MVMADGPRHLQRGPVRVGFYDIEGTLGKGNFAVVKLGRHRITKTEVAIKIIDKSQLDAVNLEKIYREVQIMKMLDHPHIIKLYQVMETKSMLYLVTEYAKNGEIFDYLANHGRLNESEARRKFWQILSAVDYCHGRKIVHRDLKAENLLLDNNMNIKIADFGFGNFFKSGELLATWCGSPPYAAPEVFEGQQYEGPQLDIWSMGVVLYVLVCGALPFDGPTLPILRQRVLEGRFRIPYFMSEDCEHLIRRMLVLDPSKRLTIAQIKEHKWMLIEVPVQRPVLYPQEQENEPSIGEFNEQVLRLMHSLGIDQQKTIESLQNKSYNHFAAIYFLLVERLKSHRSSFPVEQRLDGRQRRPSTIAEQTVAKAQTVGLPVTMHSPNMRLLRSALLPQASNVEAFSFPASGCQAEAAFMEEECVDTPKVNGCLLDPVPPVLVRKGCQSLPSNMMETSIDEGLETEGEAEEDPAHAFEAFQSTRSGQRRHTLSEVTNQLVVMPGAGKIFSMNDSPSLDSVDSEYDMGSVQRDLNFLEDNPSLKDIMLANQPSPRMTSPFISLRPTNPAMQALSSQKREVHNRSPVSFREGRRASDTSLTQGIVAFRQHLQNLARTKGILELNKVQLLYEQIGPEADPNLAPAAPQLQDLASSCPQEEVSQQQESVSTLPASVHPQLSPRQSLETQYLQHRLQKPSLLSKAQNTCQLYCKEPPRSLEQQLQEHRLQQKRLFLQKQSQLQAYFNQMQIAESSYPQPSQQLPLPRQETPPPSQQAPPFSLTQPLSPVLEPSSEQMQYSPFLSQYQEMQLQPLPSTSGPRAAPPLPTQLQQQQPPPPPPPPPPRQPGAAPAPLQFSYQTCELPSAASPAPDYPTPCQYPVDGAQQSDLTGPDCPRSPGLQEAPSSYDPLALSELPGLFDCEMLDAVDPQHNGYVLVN
# Sequence of UniProt O75460 (whole entry, looked up): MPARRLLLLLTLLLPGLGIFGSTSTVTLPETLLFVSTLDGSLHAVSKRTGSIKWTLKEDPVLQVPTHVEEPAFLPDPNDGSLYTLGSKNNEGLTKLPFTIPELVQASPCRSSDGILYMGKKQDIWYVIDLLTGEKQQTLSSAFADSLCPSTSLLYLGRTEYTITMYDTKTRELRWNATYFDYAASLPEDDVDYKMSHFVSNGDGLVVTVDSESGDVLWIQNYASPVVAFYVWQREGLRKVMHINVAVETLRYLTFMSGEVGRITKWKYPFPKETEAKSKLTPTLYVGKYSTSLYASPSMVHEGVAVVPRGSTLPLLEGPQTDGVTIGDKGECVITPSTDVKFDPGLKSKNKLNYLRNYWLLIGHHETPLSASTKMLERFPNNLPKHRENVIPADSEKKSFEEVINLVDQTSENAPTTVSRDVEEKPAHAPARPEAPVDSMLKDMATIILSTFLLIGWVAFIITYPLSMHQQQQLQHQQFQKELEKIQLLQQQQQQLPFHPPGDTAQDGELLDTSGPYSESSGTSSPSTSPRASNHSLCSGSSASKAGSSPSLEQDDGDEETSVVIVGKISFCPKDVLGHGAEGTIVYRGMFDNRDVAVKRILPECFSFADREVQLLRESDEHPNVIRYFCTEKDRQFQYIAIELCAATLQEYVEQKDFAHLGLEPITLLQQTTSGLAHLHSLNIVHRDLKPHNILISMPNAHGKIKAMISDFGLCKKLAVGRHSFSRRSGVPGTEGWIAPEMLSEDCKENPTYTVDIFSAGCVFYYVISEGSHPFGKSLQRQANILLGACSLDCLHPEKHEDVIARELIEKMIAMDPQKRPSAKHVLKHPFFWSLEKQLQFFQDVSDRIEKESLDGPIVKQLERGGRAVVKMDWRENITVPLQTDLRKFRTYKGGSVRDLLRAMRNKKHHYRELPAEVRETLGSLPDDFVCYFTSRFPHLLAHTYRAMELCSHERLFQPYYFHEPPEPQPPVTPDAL
# Sequence of UniProt Q9H4B4 (whole entry, looked up): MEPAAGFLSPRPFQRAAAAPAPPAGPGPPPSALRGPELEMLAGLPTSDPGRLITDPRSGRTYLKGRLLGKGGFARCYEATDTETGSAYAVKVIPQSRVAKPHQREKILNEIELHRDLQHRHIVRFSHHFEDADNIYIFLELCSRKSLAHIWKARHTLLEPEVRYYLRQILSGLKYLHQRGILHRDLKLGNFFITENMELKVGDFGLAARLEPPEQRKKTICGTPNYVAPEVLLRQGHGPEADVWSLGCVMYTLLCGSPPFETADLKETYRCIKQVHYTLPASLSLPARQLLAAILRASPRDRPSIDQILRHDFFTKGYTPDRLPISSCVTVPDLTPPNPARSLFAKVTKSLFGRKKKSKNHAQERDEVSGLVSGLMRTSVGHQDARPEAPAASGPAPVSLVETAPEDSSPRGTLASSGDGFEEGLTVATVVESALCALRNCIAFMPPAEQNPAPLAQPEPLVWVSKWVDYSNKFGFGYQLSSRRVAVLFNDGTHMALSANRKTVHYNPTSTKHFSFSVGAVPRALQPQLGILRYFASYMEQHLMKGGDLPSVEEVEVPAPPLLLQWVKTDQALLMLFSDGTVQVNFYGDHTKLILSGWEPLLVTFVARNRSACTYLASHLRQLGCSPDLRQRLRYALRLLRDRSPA
# Sequence of UniProt P45985 (whole entry, looked up): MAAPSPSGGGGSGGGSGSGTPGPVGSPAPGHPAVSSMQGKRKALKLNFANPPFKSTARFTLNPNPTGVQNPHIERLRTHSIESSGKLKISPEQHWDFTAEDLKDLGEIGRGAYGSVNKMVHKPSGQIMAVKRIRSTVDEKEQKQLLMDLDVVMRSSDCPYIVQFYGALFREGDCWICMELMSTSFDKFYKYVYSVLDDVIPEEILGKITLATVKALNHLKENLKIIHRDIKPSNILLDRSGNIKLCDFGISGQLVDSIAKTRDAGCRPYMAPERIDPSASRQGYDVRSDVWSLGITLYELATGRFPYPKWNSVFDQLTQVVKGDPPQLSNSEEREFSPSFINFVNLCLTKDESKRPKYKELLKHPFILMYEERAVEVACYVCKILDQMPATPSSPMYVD

# Study 1
# SMILES: CN(C)C(=O)Cn1cc(-c2nc([C@@](C)(c3ccc(-c4cnc(N)nc4)cc3)C3CC3)no2)cn1
# Concentration: 1 µM
target,observed,technique,remaining binding
"Serine/threonine-protein kinase SIK2 (SIK2, Homo sapiens, UniProt Q9H0K1)",cell-free assay,competition with immobilised ligand,93%
"Cyclin-dependent kinase 19 (CDK19, Homo sapiens, UniProt Q9BWU1)",,competition binding,100%
"Bone morphogenetic protein receptor type-2 (BMPR2, Homo sapiens, UniProt Q13873)",cell-free assay,competition with immobilised ligand,94%
"Mitogen-activated protein kinase kinase kinase 3 (MAP3K3, Homo sapiens, UniProt Q99759)",cell-free assay,competition with immobilised ligand,86%
"Serine/threonine-protein kinase D3 (PRKD3, Homo sapiens, UniProt O94806)",cell-free assay,competition with immobilised ligand,100%
"Inhibitor of nuclear factor kappa-B kinase subunit alpha (CHUK, Homo sapiens, UniProt O15111)",cell-free assay,competition with immobilised ligand,0%
"Mitogen-activated protein kinase kinase kinase kinase 2 (MAP4K2, Homo sapiens, UniProt Q12851)",cell-free assay,competition with immobilised ligand,100%
"Dual specificity mitogen-activated protein kinase kinase 4 (MAP2K4, Homo sapiens, UniProt P45985)",cell-free assay,competition with immobilised ligand,100%
"Ribosomal protein S6 kinase alpha-4, N-terminal kinase domain (RPS6KA4, Homo sapiens, UniProt O75676)",cell-free assay,competition with immobilised ligand,100%
"Cyclin-dependent kinase 17 (CDK17, Homo sapiens, UniProt Q00537)",cell-free assay,competition with immobilised ligand,96%
"Dual specificity mitogen-activated protein kinase kinase 1 (MAP2K1, Homo sapiens, UniProt Q02750)",cell-free assay,competition with immobilised ligand,89%
"Bone morphogenetic protein receptor type-1B (BMPR1B, Homo sapiens, UniProt O00238)",cell-free assay,competition with immobilised ligand,76%
"Ephrin type-A receptor 8 (EPHA8, Homo sapiens, UniProt P29322)",cell-free assay,competition with immobilised ligand,100%
"MAP/microtubule affinity-regulating kinase 4 (MARK4, Homo sapiens, UniProt Q96L34)",cell-free assay,competition with immobilised ligand,95%
"Serine/threonine-protein kinase/endoribonuclease IRE1 (ERN1, Homo sapiens, UniProt O75460)",cell-free assay,competition with immobilised ligand,86%

# Study 2
# Target: Sox-I, HMG box (Salpingoeca helianthica)
# Technique: Spec-seq
# Molecule type: double-stranded DNA, one strand shown
# Medium: in vitro
# Concentration: not given
# Notes: whole probe, mean of replicates
# Reference: not given
# Direction: lower = stronger binding
# All sequences stand within: GAGTCGTCTCGTCAGCAC … CCGTAGAGCACTCAGGTC
# Residues (chain): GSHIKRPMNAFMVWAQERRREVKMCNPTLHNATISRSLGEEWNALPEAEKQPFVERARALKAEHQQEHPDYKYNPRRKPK
Oligonucleotide,relative binding energy
CATGGGG,0.988 ln ratio
ATTTGTT,-1.26 ln ratio
CATAAGT,0.454 ln ratio
CATCTTG,0.653 ln ratio
AAACGTT,-0.374 ln ratio
CATTGAC,0.29 ln ratio
CATATCT,0.538 ln ratio
TGCGGTT,0.72 ln ratio

# Study 3
# Target: TAR DNA-binding protein 43, full length, His tag (TARDBP, Homo sapiens, UniProt Q13148, residues 1-414)
# Technique: RNA Bind-n-Seq
# Molecule type: RNA
# Medium: in vitro
# Concentration: 20 nM
# Notes: 6-mer, flanks averaged, single round
# With: 150 mM KCl
# Reference: input library
# Direction: higher = stronger binding
Oligonucleotide,6-mer enrichment (R)
GACGAA,0.942
AUAGCU,0.6
AAUUCG,0.61
AGGAGG,4.1
UGAAUG,1.37
GCAUGG,1.83
CAAGCU,0.623
UUAACU,0.569

# Study 4
# Compound: Cc1cc2ncc(-c3ccccc3)nc2cc1C
# Observed: enzyme activity
# Mode: inhibitor
# Concentration: 0.5 µM
# Reference: control
target,remaining activity
"Cyclin-dependent kinase 9, with cyclin K (CDK9, Homo sapiens, UniProt P50750)",101%
"G protein-coupled receptor kinase 4 (GRK4, Homo sapiens, UniProt P32298)",94.8%
"Dual specificity protein kinase CLK4 (CLK4, Homo sapiens, UniProt Q9HAZ1)",96%
"Myosin-IIIb (MYO3B, Homo sapiens, UniProt Q8WXR4)",99%
"Misshapen-like kinase 1 (MINK1, Homo sapiens, UniProt Q8N4C8)",91.8%
"Tyrosine-protein kinase TXK (TXK, Homo sapiens, UniProt P42681)",99.5%
"Hepatocyte growth factor receptor (MET, Homo sapiens, UniProt P08581)",95.1%
"Dual specificity mitogen-activated protein kinase kinase 1 (MAP2K1, Homo sapiens, UniProt Q02750)",98%
"Calcium/calmodulin-dependent protein kinase type IV (CAMK4, Homo sapiens, UniProt Q16566)",98.3%
"Dual specificity protein kinase CLK3 (CLK3, Homo sapiens, UniProt P49761)",92.8%
"Serine/threonine-protein kinase PLK3 (PLK3, Homo sapiens, UniProt Q9H4B4)",90.1%
"Mitogen-activated protein kinase 11 (MAPK11, Homo sapiens, UniProt Q15759)",96.8%
"Rho-associated protein kinase 1 (ROCK1, Homo sapiens, UniProt Q13464)",100%
